Measured values from different studies.
A part holds a random share of what one study measured.

Sample 1
Target: Prothrombin, mature alpha-thrombin (F2, Homo sapiens, UniProt P00734)
Method: aptamer microarray, sandwich
Molecule type: DNA with 2'F-ANA
Sample: in vitro
Concentration: 200 nM
Setting: whole 15-mer aptamer, many near background
With: Cy3 exosite-II aptamer, 400 nM
Direction: higher = stronger binding
Measurement: mean fluorescence intensity
Sequence: GGTTGGTGTGGTTGG
2'F-ANA at 1 2 3 5 10 12 13 14: 45.6 a.u.
2'F-ANA at 1 3 4 5 6 8 10 13 14: 47.6 a.u.
2'F-ANA at 2 7 9 10 13 14 15: 84.1 a.u.
2'F-ANA at 2 3 4 5 7 12 14: 56.7 a.u.
2'F-ANA at 1 3 4 5 7 8 9 10 15: 48.2 a.u.
2'F-ANA at 1 2 3 5 6 8 9 11 15: 52.4 a.u.
2'F-ANA at 1 3 7 13: 304 a.u.
2'F-ANA at 1 2 3 5 6 7 9 14: 44.6 a.u.
2'F-ANA at 2 3 5 7 8 10 11 13 15: 53.7 a.u.
2'F-ANA at 4 6 12 13 15: 370 a.u.

Sample 2
Target: Interferon regulatory factor 3, full length, phosphomimetic (IRF3, Homo sapiens, UniProt Q14653, residues 1-427, S386D/S396D/S398D/S402D/T404D/S405D)
UniProt Q14653, sequence (whole entry, unmodified, looked up): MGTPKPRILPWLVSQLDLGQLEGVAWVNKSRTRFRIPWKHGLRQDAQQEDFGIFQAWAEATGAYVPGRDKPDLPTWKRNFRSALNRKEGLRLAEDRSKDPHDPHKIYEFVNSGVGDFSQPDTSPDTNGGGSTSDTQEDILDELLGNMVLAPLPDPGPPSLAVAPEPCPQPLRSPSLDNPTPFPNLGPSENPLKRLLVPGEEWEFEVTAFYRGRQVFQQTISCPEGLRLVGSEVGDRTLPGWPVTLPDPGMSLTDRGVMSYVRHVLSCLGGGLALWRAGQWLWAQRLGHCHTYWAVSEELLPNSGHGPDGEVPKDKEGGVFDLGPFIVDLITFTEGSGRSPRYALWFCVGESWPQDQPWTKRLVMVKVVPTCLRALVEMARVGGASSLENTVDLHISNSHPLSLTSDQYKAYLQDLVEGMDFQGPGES
Method: protein-binding microarray
Molecule type: double-stranded DNA, one strand shown
Sample: in vitro
Concentration: 2540 nM top
Setting: 60-bp whole probe
With: salmon DNA 0.4 mg/ml
Relative to: random background probes
Direction: higher = stronger binding
Measurement: fitted relative affinity
All sequences stand within: GCCTAGCAC … GTCTTGATTCGCTTGACGCTGCTG
GACAATTCCAGTTTCGAGACGTGCTAG: 3.46 z-score
TTAGGCCTGCTACTGCTTTAGTGCTAG: -1.06 z-score
TTAGATTTCGGGTAACGATTAGTGCTA: 0.822 z-score
TCATTTCTATATTTGCTACTGTGCTAG: 2.57 z-score
TCAGTTTTCAGTTTCACACTGTGCTAG: 5.16 z-score
TTAGATTTCAGTTTCGATTAGTGCTAG: 5.63 z-score
GACGGTATCGGGTTTCGAGACGTGCTA: 2.81 z-score

Sample 3
Target: Centromere-binding protein 1, full length, His-tagged (CBF1, Saccharomyces cerevisiae, UniProt P17106, residues 1-351)
UniProt P17106, sequence (whole entry, looked up): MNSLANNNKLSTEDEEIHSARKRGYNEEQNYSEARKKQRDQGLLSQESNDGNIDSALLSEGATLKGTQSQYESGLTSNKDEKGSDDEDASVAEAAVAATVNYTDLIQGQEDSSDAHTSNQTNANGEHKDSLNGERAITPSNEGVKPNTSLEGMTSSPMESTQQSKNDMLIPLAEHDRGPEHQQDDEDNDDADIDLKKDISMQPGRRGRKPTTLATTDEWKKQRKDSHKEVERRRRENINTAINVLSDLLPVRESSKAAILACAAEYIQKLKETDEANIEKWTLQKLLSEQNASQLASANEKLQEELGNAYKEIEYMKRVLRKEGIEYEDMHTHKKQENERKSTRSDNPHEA
Method: competition protein-binding microarray
Molecule type: double-stranded DNA, one strand shown
Sample: in vitro
Concentration: 2 µM
Setting: whole 60-bp probe, lowest competitor level
With: Pho4 competitor, 0.05 µM
Direction: higher = stronger binding
Measurement: fluorescence intensity
All sequences stand within: … GTCTTGATTCGCTTGACGCTGCTG
GTCTTGTCTCATTGCTTAGTGGGTGTCCCCACTTCA: 61 a.u.
GGAAAACCGCCCCATCACGCTGACCCCTTTGGCCCG: 101 a.u.
CGGATGCTGTTACTACACGTGAACCATCCGGAGAGT: 668 a.u.
GCGCGAACAAACTTGGTCATGACAGCTCCACCGGCA: 54.4 a.u.
GGACCAGCCCGGACCCATGTGCTTCCAAGTGGCCAG: 73.8 a.u.
GGATAATGCTTTTTTCCCGTGGCCGTTACATTTTTG: 92.7 a.u.
TGCGCAACAACTTGTGCTGTGGGTGTATGTCTAGAA: 66.3 a.u.

Single results of other studies
PhoQ, residues 284 288 289 292 302 303 SSYNSA
fold induction (PhoP, residues 12 14 15 18 19 NQFFI (Escherichia coli, UniProt P23836); Sort-seq, refers to: YFP reporter; E. coli; PhoQ-PhoP variant library, with: 10 µM Mg2+; relative to: high Mg2+ state, higher = stronger signaling): 1.19
